Values quoted from earlier work that unrelated publications cite.
Each numbered part shows a few of the values that one paper quotes. “And” joins repeats or separate records; there may be more than shown.

Series 1 — organism: Cryptosporidium parvum; method: high-throughput screen; concentration: concentration not given
Structure (SMILES) | activity
CCCCC1=NC2(CCCC2)C(=O)N1Cc1ccc(-c2ccccc2-c2nnn[nH]2)cc1 | inactive
COc1ccc(-c2oc3c(CC=C(C)C)c(O[C@@H]4O[C@H](CO)[C@@H](O)[C@H](O)[C@H]4O)cc(O)c3c(=O)c2O[C@@H]2O[C@@H](C)[C@H](O)[C@@H](O)[C@H]2O)cc1 | inactive
O=C1CC[C@@H](C(=O)N2CSC[C@H]2C(=O)O)N1 | inactive
CCCCN1CCCC1CNC(=O)c1cc(C#N)c2ccccc2c1OC (stereo not shown) | inactive
Cc1ccc(S(=O)(=O)NC(=O)NN2CCCCCC2)cc1 | inactive
CC(=O)CCCCn1c(=O)c2c(ncn2C)n(C)c1=O | inactive
CCOc1cc(CC(=O)N[C@@H](CC(C)C)c2ccccc2N2CCCCC2)ccc1C(=O)O | inactive
C[C@]12CCC(=O)C=C1CC[C@@H]1[C@@H]2C(=O)C[C@@]2(C)[C@H]1CC[C@]2(O)C(=O)CO | inactive
CCCCC(=O)O[C@H]1CC[C@H]2[C@@H]3CCc4cc(O)ccc4[C@H]3CC[C@]12C | inactive
CCCCc1nc(Cl)c(CO)n1Cc1ccc(-c2ccccc2-c2nn[nH]n2)cc1 | inactive
CC(=O)Nc1nnc(S(N)(=O)=O)s1 | inactive
CC1=C(/C=C/C(C)=C/C=C/C(C)=C\C(=O)O)C(C)(C)CCC1 | inactive
COc1ccc(CCN(C)CCCC(C#N)(c2ccc(OC)c(OC)c2)C(C)C)cc1OC.Cl.O (stereo not shown) | inactive
O=C(CCCN1CC=C(n2c(=O)[nH]c3ccccc32)CC1)c1ccc(F)cc1 | inactive

Mixed results
Compound | tested on | test | test system | setting | quantity | result
CCCN1CCCC[C@H]1C(=O)Nc1c(C)cccc1C | – | – | plasma | – | free Cmax | 0.0974 µM
Cn1ncnc1[C@H]1c2n[nH]c(=O)c3cc(F)cc(c23)N[C@@H]1c1ccc(F)cc1 | – | – | rat | 0.05 mg/kg once daily, day 28 | AUC | 148 ng·h/mL
Cc1nnc(SCC2=C(C(=O)O)N3C(=O)[C@@H](NC(=O)Cn4cnnn4)[C@H]3SC2)s1 | – | – | plasma | concentration not given, total, literature data | Cmax | 407 µM
O=C(Cn1ccnc1[N+](=O)[O-])NCc1ccccc1 | Trypanosoma cruzi | parasite growth | rat L6E9 myoblasts, amastigote | – | IC50 | 3700 nM
CNC(=O)c1ccc(Nc2ncc(C(F)(F)F)c(NCc3nccnc3N(C)S(C)(=O)=O)n2)cc1 | ADORA3 | Cerep selectivity panel | – | – | Ki | 27 nM
O=C(c1cc(Cc2n[nH]c(=O)c3ccccc23)ccc1F)N1CCN(C(=O)C2CC2)CC1 | – | – | female | 80 mg/kg | AUC(0-inf) | 12600 ng·h/mL
COc1cc(C(=O)O)ncc1C#Cc1ccccc1NS(=O)(=O)c1cccc2c(N(C)C)ccnc12 | SLC16A3 (human) | cellular activity | – | – | IC50 | 506 nM
C=C(C)[C@@H]1CC[C@]2(CO)CC[C@]3(C)[C@H](CC[C@@H]4[C@@]5(C)CC[C@H](OC(=O)/C=C/c6ccc(O)cc6)[C@@](C)(CO)[C@@H]5CC[C@]43C)[C@@H]12 | Plasmodium falciparum | – | Dd2 | concentration not given | antiplasmodial activity | active
c1ccc2ccccc2c1 | – | – | zebrafish embryos, whole embryo | 69.08 ng/well, 48 hpf, single exposure | amount in tissue | 0.101 ng/well and 0.0951 ng/well and 0.0991 ng/well
C=C(C)[C@@H]1CC[C@]2(CO)CC[C@]3(C)[C@H](CC[C@@H]4[C@@]5(C)CC[C@H](O)[C@@](C)(COC(=O)/C=C\c6ccc(O)cc6)[C@@H]5CC[C@]43C)[C@@H]12 | Plasmodium falciparum | – | Dd2 | concentration not given | antiplasmodial activity | active
O=C(O)c1cc(-c2ccc(C3CCNCC3)cc2)c2ccc(-c3ccc(C(F)(F)F)cc3)cc2c1 | HRH2 | radioligand binding | – | 10 µM | IC50 | 1390 nM
c1ccc2c(c1)ccc1ccccc12 | – | – | zebrafish embryos, whole embryo | 96.07 ng/well, 48 hpf, single exposure | amount in tissue | 3.96 ng/well and 3.67 ng/well and 4.39 ng/well
CO[C@@H](C(=O)N1Cc2n[nH]c(NC(=O)c3ccc(N4CCN(C)CC4)cc3)c2C1)c1ccccc1 | – | – | rat | intravenous infusion, 6-h repeated infusions | MTD | 720 mg/m2
C[C@H](c1ccnc(Nc2nc3ccc(-c4cc(N(C)C)ncn4)cc3[nH]2)c1)N1CCN(C(=O)CC(F)(F)F)CC1 | TBK1 | biochemical | – | high ATP | IC50 | 18 nM

Excerpt of the above (series 1):
Structure (SMILES) | activity
CCCCC(=O)O[C@H]1CC[C@H]2[C@@H]3CCc4cc(O)ccc4[C@H]3CC[C@]12C | inactive
CCCCc1nc(Cl)c(CO)n1Cc1ccc(-c2ccccc2-c2nn[nH]n2)cc1 | inactive
CC(=O)Nc1nnc(S(N)(=O)=O)s1 | inactive
CC1=C(/C=C/C(C)=C/C=C/C(C)=C\C(=O)O)C(C)(C)CCC1 | inactive
